Published values collected from several papers.
Each line is one published result; not all experiments were run side by side.
Target: Transcriptional activator protein LasR (lasR, Pseudomonas aeruginosa, UniProt P25084)
Observed: reporter gene
Sequence (P25084 1-239, as in one of the studies): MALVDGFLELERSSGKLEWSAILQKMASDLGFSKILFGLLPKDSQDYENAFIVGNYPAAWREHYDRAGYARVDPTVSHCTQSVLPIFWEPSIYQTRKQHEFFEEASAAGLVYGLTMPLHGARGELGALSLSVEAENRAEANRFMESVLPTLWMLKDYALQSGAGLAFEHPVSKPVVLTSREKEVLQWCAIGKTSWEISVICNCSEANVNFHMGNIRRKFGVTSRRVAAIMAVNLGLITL

With `O=C(Cn1cc(C2CCCCC2)nn1)N[C@H]1CCOC1=O` the IC50 was 12.4 µM (antagonist).
`O=C(NCc1cccc([N+](=O)[O-])c1)c1ccccc1[N+](=O)[O-]` has an EC50 of 25 µM (agonist; Escherichia coli, JLD271 LasR reporter).
For `CCCCCCCCCC(=O)CC(=O)Nc1ccccc1O`, the EC50 was 17 µM (agonist; PAO-JP2 pump active).
For `CCCCCCCCCCNC(=O)CC(=O)c1ccccc1`, the IC50 was 0.7 µM (antagonist; Pseudomonas aeruginosa PAO-JP2 GFP reporter; added: 150 nM OdDHL).
For `O=C(CCCOc1ccc(Cl)cc1)N[C@H]1CCOC1=O`, the EC50 was 33 µM (agonist; Escherichia coli, JLD271 with LasR plasmid).
The IC50 of `O=C(Cn1cc(-c2ccccc2)nn1)N[C@H]1CCOC1=O` is reported as 15.9 µM (antagonist).
The IC50 of `CCCCCCCCCCCNC(=O)CC(=O)c1ccccc1` is reported as 0.5 µM (antagonist; Pseudomonas aeruginosa PAO-JP2 GFP reporter; added: 150 nM OdDHL).
For `CS(=O)(=O)c1cccc(OCCCC(=O)NC2CC3CC3C2O)c1` (centres unmarked), the EC50 was greater than 20 µM (agonist).
For `CCCCCc1cn(CC(=O)N[C@H]2CCOC2=O)nn1`, the IC50 was 3.27 µM (antagonist).
With `CCCCCC(=O)CC(=O)N[C@H]1CCOC1=O` the EC50 was greater than 200 µM (agonist; PAO-JP2 pump active).
For `CS(=O)(=O)c1cccc(OCCCC(=O)N[C@H]2CCOC2=O)c1`, the EC50 was 10 µM (agonist).
